Measured values pooled from the literature.
Each line is one published result; not all experiments were run side by side. Values joined by “and” are separate records of one study, mostly repeats; a detail may differ. ± gives the spread as reported.

C[C@@H](Oc1ccc(S(C)(=O)=O)cc1C(=O)N1C[C@@H]2C[C@]2(c2cc(C(F)(F)F)on2)C1)C(F)(F)F — AUC(0-72 h) (young humans, plasma; oral, 25 mg single dose, geometric mean): 7.38 µM·h
O=C1CC[C@H](N2Cc3cc(N4CCN(CC5CCN(c6ccc([C@@H]7c8ccc(O)cc8CC[C@@H]7c7ccccc7)cc6)CC5)CC4)ccc3C2=O)C(=O)N1 — participants with TRAE dry skin (human; oral, 200 mg, added: dabigatran etexilate 75 mg): 0%
COc1ccc(NC(=O)CSc2nnnn2C)cc1 — logP (octanol/buffer; pH 11, known kinase inactives set): 1.26
CCc1cc(C(=O)NC)c2nccc(N3CCc4c(cc(Cn5ccnc5)cc4-c4cn(C)nc4C(F)(F)F)C3=O)c2c1 — haematocrit (Sprague Dawley rats; oral, 100 mg/kg once daily, 7 days): 44.4 ± 0.68%
CNC(=O)c1ccc(-c2cnc3ncc(Cc4ccc5ncccc5c4)n3n2)cc1F — patients with adverse event (measured: Hypoalbuminemia; cancer patients; oral, dose not given, dose escalation, grade 3-4): 3%
Cn1c(=O)oc2ccc(-c3ccc(C[C@@H](C#N)NC(=O)[C@@H]4CNCCCO4)cc3)cc21 — Vd/F (human, normal renal function, plasma; oral, 25 mg single dose, mean): 411 L
Cc1c(-c2ccc(N3CCc4cccc(C(=O)Nc5nc6ccccc6s5)c4C3)nc2C(=O)O)cnn1CC12CC3(C)CC(C)(C1)CC(OCCNCC[C@H](O)CO)(C3)C2 — mean arterial pressure change (beagle dog, anaesthetised; intravenous infusion, 0.1 mg/kg/min, 180 min; reference: baseline): -14 mmHg
O=C1OC2(c3ccc(O)cc3Oc3cc(O)ccc32)c2ccccc21 — encapsulation efficiency (PSP-2 condensates in DMEM; concentration not given, added: cargo 5 µM): ~20%
O=C(Nc1cnccc1Cl)N1CCN(Cc2ccc3c(c2)OC(F)(F)O3)CC1 — injection site pain incidence (multiple ascending dose; young men; 25 mg, treatment-emergent adverse events): 33.3%
COc1ncc(-c2nc3c(n2C(C)C)[C@H](c2ccc(Cl)cc2)N(c2cc(Cl)cn(C)c2=O)C3=O)c(OC)n1 — median Tmax (human patients, plasma; oral, 200 mg, high-dose arm, cycle 2 day 1): 3.9 h
Cn1nc2c(=O)n(C3CC3)cnc2c1[C@](O)(c1cnc(C(F)(F)F)c(Cl)c1)C(F)(F)F — AUC(0-24 h) (humanized SCID mice, blood; 1 mg/kg once daily, 6 days, infected): 6.66 µM·h
CCCCOC(=O)N1CCN(C(=O)[C@H](CP(=O)(O)O)NC(=O)c2cc(N3CC[C@H](OC)C3)nc(-c3ccccc3)n2)CC1 — change in PR interval (human; subcutaneous, 8 mg, 24 h post-dose; reference: baseline): -3.3 ± 10.8 ms
C=CCN1CC(=O)N2[C@@H](Cc3ccc(O)cc3F)C(=O)N(Cc3cccc(N4CC(N5CCN(CC)CC5)C4)n3)C[C@@H]2N1C(=O)NCc1ccccc1 — treatment-related nausea (advanced solid tumour patients; oral, 20 mg twice daily, any grade, dose-escalation): 66.7%
CCN(CC)CCNC(=O)c1c(C)[nH]c(/C=C2\C(=O)Nc3ccc(F)cc32)c1C — serum concentration (human, serum; 50 mg maintenance dose, 24 h post-dose): 52.9 ng/mL
Cn1cc(-c2cn3nccc3c(-c3cnn([C@]4(CC#N)C[C@@H](C#N)C4)c3)n2)cn1 — dose-normalised AUC(0-t) (healthy humans fasted, plasma; oral, 100 mg single dose, geometric mean): 13.8 ng·h/mL/mg
C=CC(=O)NC1CCN(c2ncc3ncnc(Nc4ccc(Oc5ccc6c(c5)ncn6C)c(C)c4)c3n2)CC1 — dose-normalised Cmax ratio (healthy male volunteers, plasma; oral tablet, 60 mg, dose-normalised Cmax, adjusted geometric mean; reference: oral over intravenous microtracer): 26.1%
FC(F)(F)c1ccc(CNc2ccc(Cc3c[nH]c4ncc(Cl)cc34)cn2)cn1 — decreased appetite incidence (patients with advanced solid tumours; oral, 1000 mg/day, all patients, all grades): 31%
O=C(Cc1ccccc1[N+](=O)[O-])Nc1ccccc1C(=O)N1CCOCC1 — logP (octanol/buffer; pH 11, known kinase inactives set): 1.19
OC[C@H]1OC(O)[C@H](O)[C@@H](O)[C@@H]1O (stereo partly drawn) — osmolality (aqueous solution; 5 mM, added: glucosamine): 3 mOsmol/kg
Nc1nc(NC2CC2)c2ncn([C@H]3C=C[C@@H](CO)C3)c2n1 — drug concentration (Tat+ transgenic mouse, striatum; subcutaneous osmotic pump, dose not given, 5 d): 166000 ± 24600 ng/g
NC1(C(=O)N[C@@H](CCO)c2ccc(Cl)cc2)CCN(c2nc[nH]c3nccc2-3)CC1 — Tmax (LC-MS/MS, non-compartmental; human patients, plasma; 160/320 mg cohort, cycle 0, geometric mean, added: enzalutamide): 1.3 h
Cn1c(=O)n(C2CCC(=O)NC2=O)c2cccc(C#CCOC3CCN(C[C@H]4CC[C@H](n5cc(NC(=O)c6cnn7ccc(N8C[C@H]9C[C@@H]8CO9)nc67)c(C(F)F)n5)CC4)CC3)c21 (stereo partly drawn) — H/D exchange half-life (0.5 µM, pH 7.8): 2.6 h and 1.9 h
CNC(=O)c1ccc(-c2cnc3ncc(Cc4ccc5ncccc5c4)n3n2)cc1F — AUC(0-t) (human, moderate NCI classification, plasma; oral, 200 mg, adjusted geometric mean): 7260 ng·h/mL
CC1(C)C(/C=C/C=C/C=C/C=C2\N(CCCCS(=O)(=O)O)c3ccc4ccccc4c3C2(C)C)=[N+](CCCCS(=O)(=O)[O-])c2ccc3ccccc3c21 — fluorescence intensity loss (solution; 66 µM, day 15, 4 °C, dark, 800 nm): ~60%
C[C@@H](N)C1CCN(S(=O)(=O)c2cccc3cnccc23)CC1 — tmax (healthy volunteers, fasted, plasma; oral, 150 mg): 0.5 h
N#Cc1ccc2c(c1)[C@H]1CCCN(C(=O)c3ccc4[nH]cnc4c3)[C@H]1C2 — DHEA-S level (human males; 80 mg, end of trial): 5.9 µmol/L
Cc1cc(Nc2ccc(S(F)(F)(F)(F)F)cc2)n2nc(C(C)(F)F)nc2n1 — adverse event Thrombocytopenia (Plasmodium vivax malaria patients; oral, 600 mg): 0%
COc1ccc2c(c1)CN(C(=O)CCN1CCC(Cc3ccccc3)CC1)CC[S@@+]2[O-] — QT interval (telemetry; conscious male beagle dogs; intravenous, 4 mg/kg, 1 h): 229 ± 20 ms
O=C(O)CCC(=O)O.[2H]C([2H])([2H])Oc1cc(C)c2[nH]ccc2c1CN1CC[C@@H](C2CC2)C[C@H]1c1ccc(C(=O)O)cc1 — TEAE urine bacteria positive (healthy Chinese subjects; 600 mg, single ascending dose): 0%
Cc1cccc(CNC(=O)c2cn(CCNC(=O)c3ccccc3Sc3c([N+](=O)[O-])ncn3C)c3cc4c(cc3c2=O)OCO4)n1 — remaining compound (cynomolgus monkey, whole blood; 1 µM, 0.5 h): 95.5%
CN(CCC(=O)O)C(=O)c1ccc2c(c1)CC[C@@H]1[C@@H]2CC[C@]2(C)C(c3cncc(F)c3)=CC[C@@H]12 — total bilirubin (premenopausal women with endometriosis pain, serum; 60 mg twice daily, end of treatment, completers, median): 0.7 mg/dL
Cc1nc(C)c(-c2ccnc(Nc3ccc(N(C)C)c([N+](=O)[O-])c3)n2)s1 — logP (octanol/buffer, 40 mM buffer; pH 11): 4.07
CN(CCC(=O)O)C(=O)c1ccc2c(c1)CC[C@@H]1[C@@H]2CC[C@]2(C)C(c3cncc(F)c3)=CC[C@@H]12 — Tmax (postmenopausal women, plasma; 30 mg once daily multiple dose, day 14, median): 2.97 h
Cn1cnc2[nH]c(=O)[nH]c(=O)c21 — CSF concentration (human, cerebrospinal fluid; dose not given, mean): not detected
Cc1ccc(C(=O)N(CCCN)C(c2nc3snc(C)c3c(=O)n2Cc2ccccc2)C(C)C)cc1 (stereo not drawn) — patients with adverse event (pneumonia grade ≥3 (CTCAE); human patients; intravenous, 7 mg/day): 25%
CCS(=O)(=O)Nc1ccc(Oc2ccc(F)cc2F)c(-c2cn(C)c(=O)c3[nH]ccc23)c1 — dose-normalised Cmax (human, plasma; oral, 2 mg, cycle 1 day 8, geometric mean): 9.94 ng/mL/mg
CN1CCCC1CCNS(=O)(=O)c1ccc2c(c1)CN(CC1CCCCC1)CC2 (stereo not drawn) — concentration (THY-Tau22 mouse, pons/cerebellum; oral in diet, 0.02% in diet, 6 months, sampled at 8 p.m.): 193 ng/g
OC[C@H]1O[C@@H](c2ccc(Cl)c(Cc3ccc(O[C@H]4CCOC4)cc3)c2)[C@H](O)[C@@H](O)[C@@H]1O — change in haematocrit (Japanese type 1 diabetes patients, blood; 2.5 mg, day 28; reference: baseline): 0.6%
CN(C(=O)n1cnc(-c2cccnc2)c1)[C@H]1CC[C@H](O)CC1 — tissue concentration (rat, cerebellum; oral, 10 mg/kg daily for 5 days, 24 h): 15.5 ± 1.4 ng/g
O=S(=O)(O)Oc1c(O)cccc1O — CSF concentration (human, cerebrospinal fluid; concentration not given, mean): 2.2 nM
CCOc1c([C@H](C)n2nc(C)c3c(N)ncnc32)cc(Cl)c(F)c1[C@@H]1CNC(=O)C1 — ECG observations (measured: QTcF ≤450 ms; previously treated B-cell malignancy; oral, 20 mg once daily, overall population): 95.8%
Nc1ccccc1/C=C/C(=O)c1ccccc1 — emission maximum (toluene; 20 °C): 497 nm
CC(C)(C(=O)N1CCOc2c(C#N)cncc2C1)C(F)F — accumulation ratio Cmax (human, both sexes, plasma; oral, 20 mg once daily, 14 days, multiple ascending dose; reference: day 14 over day 1): 1.06
Cc1cc(NC2CCN(C(=O)OC3CCN(C(=O)/C=C/CN(C)C)C3)CC2)n2ncc(C(C)C)c2n1 (stereo not drawn) — patients with adverse event (Phase I dose escalation CTCAE v4.0, measured: abdominal pain; patients with advanced solid tumours; dose not given, Total dosing grade 3 or higher): 2%
CN1C(=O)[C@@H](NC(=O)c2nnc(Cc3ccccc3)[nH]2)COc2cccnc21 — accumulation ratio (human, both sexes; concentration not given; reference: day 14 over day 1): ~1
CC(C)C[C@H](NC(=O)[C@@H](Cc1c[nH]c2ccccc12)NC(=O)[C@H](Cc1ccc(O)cc1)NC(=O)[C@H](CO)NC(=O)[C@H](Cc1c[nH]c2ccccc12)NC(=O)[C@H](Cc1c[nH]cn1)NC(=O)[C@@H]1CCC(=O)N1)C(=O)N[C@@H](CCCNC(=N)N)C(=O)N1CCC[C@H]1C(=O)NCC(N)=O — patients, drug-related Constipation TEAEs (Chinese CPP children; intramuscular, 22.5 mg, 12 months, day 1, month 6): 1.5%
O=C(OC(C(F)(F)F)C(F)(F)F)N1CCN(Cc2cccc(Oc3ccccc3)c2)CC1 — k2 (PET blocking study; rhesus monkey, brain STR; 0.3 mg/kg, compound pretreatment, added: [18F]T-401 tracer): 0.151 min⁻¹
CCCOc1ccc([C@H]2CNC(=O)N2c2ccc3[nH]cnc3c2)cc1 — CSF concentration (human, elderly, fasted, cerebrospinal fluid; oral, 300 mg twice daily, capsule, 12 h after final dose, day 7, geometric mean): 12.6 ng/mL
O=C(Nc1ccc(S(=O)(=O)Nc2ncccn2)cc1)c1c(Cl)cccc1Cl — logP (octanol/buffer; pH 11, known kinase inactives set): -0.53
CN(C)C(=O)c1cc2cnc(Nc3ccc(-c4ccc5c(=O)cc(N6CCOCC6)oc5c4)cc3)nc2n1C1CCCC1 — concentration (BALB/c mouse, liver; oral, 20 mg/kg, 24 h): 14 ± 10.1 ng/g
O=[N+]([O-])c1cc2c3ccccc3ccc2c2ccccc12 — mammary tumour incidence (female Sprague-Dawley rats, mammary gland; intramammary injection, 12.3 µmol/rat total, 32 weeks, at necropsy): 92%
O=C1NCCc2nc(OCc3cccc(F)c3)ccc21 — Irwin test score (measured: Irritability; Sprague-Dawley rat, male; oral, 100 mg/kg, 1 h, score 0 none to 2 full; direction not given): 0
Cc1ccc([C@@H]2O[C@H](CO)[C@@H](O)[C@H](O)[C@H]2O)cc1Cc1ccc(-c2ccc(F)cc2)s1 — urinary calcium excretion change (Japanese type 2 diabetes patients; 25 mg, day 2, 24 h urine collection; reference: baseline): 1.31 mg
CN1CCN(C(=O)CN(C)S(=O)(=O)c2ccc3ccccc3c2)CC1 — logP (octanol/buffer; pH 11): 1.95
C=CC(=O)Nc1cc(Nc2nccc(-c3cn(C)c4ccccc34)n2)c(OC)cc1N(C)CCN(C)C — recovery (storage stability; human dried blood spot; 30 d, -80 °C, MQC level): 91.2%
O=C(Nc1nc2cccc(-c3ccc(CN4CCS(=O)(=O)CC4)cc3)n2n1)C1CC1 — treatment-emergent adverse events (measured: epigastric discomfort; human rheumatoid arthritis patients; oral, 75 mg once daily, 4 weeks, regardless of relatedness): 0%
O=C(CSc1nnc(-c2ccccc2O)n1-c1ccccc1)Nc1cccc(C(=O)O)c1 — logP (octanol/buffer; pH 11, known kinase inactives set): -1.65

Some of these lines once more:
CCc1cc(C(=O)NC)c2nccc(N3CCc4c(cc(Cn5ccnc5)cc4-c4cn(C)nc4C(F)(F)F)C3=O)c2c1 — haematocrit (Sprague Dawley rats; oral, 100 mg/kg once daily, 7 days): 44.4 ± 0.68%
CNC(=O)c1ccc(-c2cnc3ncc(Cc4ccc5ncccc5c4)n3n2)cc1F — patients with adverse event (measured: Hypoalbuminemia; cancer patients; oral, dose not given, dose escalation, grade 3-4): 3%
Cn1c(=O)oc2ccc(-c3ccc(C[C@@H](C#N)NC(=O)[C@@H]4CNCCCO4)cc3)cc21 — Vd/F (human, normal renal function, plasma; oral, 25 mg single dose, mean): 411 L
Cc1c(-c2ccc(N3CCc4cccc(C(=O)Nc5nc6ccccc6s5)c4C3)nc2C(=O)O)cnn1CC12CC3(C)CC(C)(C1)CC(OCCNCC[C@H](O)CO)(C3)C2 — mean arterial pressure change (beagle dog, anaesthetised; intravenous infusion, 0.1 mg/kg/min, 180 min; reference: baseline): -14 mmHg
